Assay results gathered from unrelated publications.

| SMILES | test system | conditions | AUC |
| --- | --- | --- | --- |
| CCN(CC)CCNC(=O)c1c(C)[nH]c(/C=C2\C(=O)Nc3ccc(F)cc32)c1C | human patients, plasma | oral, dose not given, cycle 1 day 1 | 2.98 µg·h/mL |
| O=C(COc1ccc(Cl)cc1)NC12CC(c3nnc([C@H]4C[C@@H](OC(F)(F)F)C4)o3)(C1)C2 | healthy human volunteers fasted, plasma | oral, 45 mg single dose, geometric mean | 29.9 µM·h |
| C[C@@H](c1ccc2nccn2c1)n1nnc2ncc(-c3cnn(C)c3)nc21 | human, plasma | oral, 300 mg, cycle 1 day 1, single dose | 10.2 µg·h/mL |
| COc1cc2nccc(Oc3ccc(NC(=O)C4(C(=O)Nc5ccc(F)cc5)CC4)cc3)c2cc1OC | human patients with toxicity, plasma | oral, dose not given, median | 28.6 µg·h/mL |
| N#Cc1cc(NC(=O)[C@H]2c3ccccc3C(=O)N(CC(F)(F)F)[C@@H]2c2cccnc2)ccc1F | human, plasma | oral, 150 mg, median | 4.25 µg·h/mL |
| Cc1ccc(C(=O)NC2CC2)cc1-n1ncc(C(=O)c2cccc(C#N)c2)c1N | healthy human | oral, 30 mg single, mean | 16.7 µg·h/mL |
| COCCc1ccc(OCC(O)CNC(C)C)cc1 (stereo not shown) | human | dose not given, alone | 0.617 µg·h/mL |
| C/C(=C\c1csc(C)n1)[C@@H]1C[C@@H]2O[C@]2(C)CCC[C@H](C)[C@H](O)[C@@H](C)C(=O)C(C)(C)[C@@H](O)CC(=O)N1 | human patients, plasma | intravenous, 15 mg/m2, cycle 1 day 1, A | 0.682 µg·h/mL |
| CNC(=O)n1ccc2cc(Oc3ccnc(NC(=O)c4ccc(C5CCN(CCO)CC5)cc4)c3)c(OCCOC)cc21 | healthy human, plasma | oral, 35 mg, geometric mean, 0-72 h, alone | 0.1 µg·h/mL |
| C#C[C@]1(O)CC[C@H]2[C@@H]3CCC4=CC(=NO)CC[C@@H]4[C@H]3CC[C@@]21CC (mixture of isomers) | human | dose not given, alone | 0.0179 µg·h/mL |
| Cc1cc(-c2nccc3c2ccn3CC(=O)Nc2ccc(-c3cnccn3)cn2)ccn1 | human, plasma | oral, 5 mg once daily, day 1, geometric mean | 0.403 µM·h |
| CN(C)CCC[C@@]1(c2ccc(F)cc2)OCc2cc(C#N)ccc21 | human | intramuscular, dose not given | 0.955 µg·h/mL |
| CC#CC(=O)N1CCC[C@H]1c1nc(-c2ccc(C(=O)Nc3ccccn3)cc2)c2c(N)nccn12 | human, plasma | oral, 50 mg single dose | 0.239 µg·h/mL |
| Cn1cnc2c(F)c(Nc3ccc(Br)cc3Cl)c(C(=O)NOCCO)cc21 | human ESRD on haemodialysis | oral, 50 mg, after dialysis | 1.88 µg·h/mL |
| COc1ccnc(C[S+]([O-])c2nc3ccc(OC(F)F)cc3[nH]2)c1OC (stereo not shown) | human, plasma | intravenous, dose not given, median | 5.7 µg·h/mL |
| COc1ccc2[nH]c([S@+]([O-])Cc3ncc(C)c(OC)c3C)nc2c1 | human, dried blood spots | oral, 10 mg omeprazole, added: fluvoxamine | 0.585 µg·h/mL |
